Measured values of several laboratories.
Parts stem from different laboratories: compare values within a part only.

Study 1 — technique: protein-binding microarray; molecule type: double-stranded DNA, one strand shown; medium: in vitro; concentration: not given; reading: higher = stronger binding
Target: Protein C-ets-1 (ETS1, Homo sapiens, UniProt P14921, residues 1-441, full length assumed)
Chain of UniProt P14921 (whole entry, looked up): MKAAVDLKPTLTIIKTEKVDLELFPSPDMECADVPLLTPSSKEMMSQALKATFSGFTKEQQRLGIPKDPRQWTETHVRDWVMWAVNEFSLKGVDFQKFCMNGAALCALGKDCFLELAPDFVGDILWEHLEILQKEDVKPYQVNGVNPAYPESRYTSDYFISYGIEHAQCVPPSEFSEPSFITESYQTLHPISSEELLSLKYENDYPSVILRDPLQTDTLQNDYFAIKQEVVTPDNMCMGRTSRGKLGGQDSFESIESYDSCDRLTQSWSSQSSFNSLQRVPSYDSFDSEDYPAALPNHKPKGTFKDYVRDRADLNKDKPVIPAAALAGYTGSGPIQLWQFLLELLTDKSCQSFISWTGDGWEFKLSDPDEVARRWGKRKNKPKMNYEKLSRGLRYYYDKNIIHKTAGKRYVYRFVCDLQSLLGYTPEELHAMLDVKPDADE
Setting: k-mer, scored over probes, only values ≥0.25
Sequence	E-score
CTATGTCC	0.252
ATGTTTCC	0.427
CCTTCCGA	0.269
AGCATCCG	0.477

Study 2 — technique: competition protein-binding microarray; molecule type: double-stranded DNA, one strand shown; medium: in vitro; concentration: 2 µM; with: Pho4 competitor, 0.05 µM; reading: higher = stronger binding; shared flanks, not repeated: … GTCTTGATTCGCTTGACGCTGCTG
Target: Centromere-binding protein 1, full length, His-tagged (CBF1, Saccharomyces cerevisiae, UniProt P17106, residues 1-351)
Chain of UniProt P17106 (whole entry, looked up): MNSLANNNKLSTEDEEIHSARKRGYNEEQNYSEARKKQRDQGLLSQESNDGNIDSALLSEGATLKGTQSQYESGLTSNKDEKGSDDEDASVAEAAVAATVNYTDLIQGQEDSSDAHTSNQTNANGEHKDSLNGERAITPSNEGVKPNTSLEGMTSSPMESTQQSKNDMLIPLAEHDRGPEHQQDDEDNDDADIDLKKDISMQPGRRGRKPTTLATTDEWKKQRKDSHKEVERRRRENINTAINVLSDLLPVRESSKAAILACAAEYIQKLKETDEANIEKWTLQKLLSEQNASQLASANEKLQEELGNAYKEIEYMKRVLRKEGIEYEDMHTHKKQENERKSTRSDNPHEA
Setting: whole 60-bp probe, lowest competitor level
Sequence	fluorescence intensity [a.u.]
CTAACGAAGGTTTTTCACGTGTAATACAAGCCAAGT	742
TACCGGATGCAATCGCACGGGCACTAGCCTGTGCCT	53.3
GTCTTGTCTCATTGGTACGTGGGTGTCCCCACTTCA	77.1
GTGTTAAAGACTTGTAAAAGTTGCCGTAAAACACTA	91.7
TTGGTACGAAGAAAGCACGTGGATTCAGCAATTCAA	1400

Study 3 — technique: universal PBM; molecule type: double-stranded DNA, one strand shown; medium: in vitro; concentration: 600 nM; reading: higher = stronger binding
Target: Sal-like protein 4, full length isoform A (SALL4, Homo sapiens, UniProt Q9UJQ4, residues 1-1053)
Chain of UniProt Q9UJQ4 (whole entry, looked up): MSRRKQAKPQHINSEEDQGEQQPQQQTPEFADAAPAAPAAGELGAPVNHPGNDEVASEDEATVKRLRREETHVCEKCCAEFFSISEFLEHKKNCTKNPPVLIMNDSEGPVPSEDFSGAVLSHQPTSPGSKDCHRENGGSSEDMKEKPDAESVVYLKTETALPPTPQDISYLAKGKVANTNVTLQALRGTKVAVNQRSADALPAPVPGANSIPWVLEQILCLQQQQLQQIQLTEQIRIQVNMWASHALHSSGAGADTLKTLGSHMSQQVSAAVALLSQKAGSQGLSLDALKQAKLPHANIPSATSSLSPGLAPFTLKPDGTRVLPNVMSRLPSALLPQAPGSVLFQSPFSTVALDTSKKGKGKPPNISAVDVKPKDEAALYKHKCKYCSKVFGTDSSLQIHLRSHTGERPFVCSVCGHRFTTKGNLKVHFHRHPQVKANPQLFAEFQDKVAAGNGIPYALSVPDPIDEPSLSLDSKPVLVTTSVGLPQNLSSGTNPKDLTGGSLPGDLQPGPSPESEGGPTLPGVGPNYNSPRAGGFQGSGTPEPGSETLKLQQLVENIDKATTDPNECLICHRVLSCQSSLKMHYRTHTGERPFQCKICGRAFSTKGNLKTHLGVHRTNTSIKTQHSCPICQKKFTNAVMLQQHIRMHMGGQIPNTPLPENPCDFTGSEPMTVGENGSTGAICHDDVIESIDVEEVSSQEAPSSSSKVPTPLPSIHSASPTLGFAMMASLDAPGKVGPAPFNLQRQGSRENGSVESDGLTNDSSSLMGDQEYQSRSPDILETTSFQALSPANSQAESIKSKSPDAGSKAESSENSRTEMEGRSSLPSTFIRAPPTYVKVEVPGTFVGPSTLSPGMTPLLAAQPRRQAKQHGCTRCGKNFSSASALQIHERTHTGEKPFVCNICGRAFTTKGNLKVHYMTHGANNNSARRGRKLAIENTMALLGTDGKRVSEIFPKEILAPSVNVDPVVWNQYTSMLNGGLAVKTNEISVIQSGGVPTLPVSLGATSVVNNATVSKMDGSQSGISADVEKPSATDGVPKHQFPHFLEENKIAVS
Setting: 8-mer, flanks averaged, mean of replicates
Sequence	E-score
GTCCAATA	0.158
CACGGGAA	-0.254
ACTGGATG	-0.0938
GGATATCA	0.0867

Other studies, line by line
Substance	target	test	system	setting	scale	measurement	value
PhoQ, residues 284 288 289 292 302 303 AEGLLW	PhoP, residues 12 14 15 18 19 NIMAP (Escherichia coli, UniProt P23836)	Sort-seq, item: YFP reporter	E. coli	PhoQ-PhoP variant library, with: 10 µM Mg2+	relative to: high Mg2+ state, higher = stronger signaling	fold induction	0.764

Repeated from above (study 2):
Sequence	fluorescence intensity [a.u.]
GTCTTGTCTCATTGGTACGTGGGTGTCCCCACTTCA	77.1
